Results from different studies.
A part holds a random share of what one study measured. Changes are numbered by the printed parent chain.

Series 1 — method: RNA Bind-n-Seq; molecule type: RNA; medium: in vitro; concentration: not given; setting: RNA with constant flanks, ends assumed; baseline: input RNA pool; reading: higher = stronger binding
Target: RING finger protein unkempt homolog, zinc fingers 1-6, GST-SBP tag (UNK, Homo sapiens, UniProt Q9C0B0, residues 30-357)
Chain of UniProt Q9C0B0 (30-357, looked up): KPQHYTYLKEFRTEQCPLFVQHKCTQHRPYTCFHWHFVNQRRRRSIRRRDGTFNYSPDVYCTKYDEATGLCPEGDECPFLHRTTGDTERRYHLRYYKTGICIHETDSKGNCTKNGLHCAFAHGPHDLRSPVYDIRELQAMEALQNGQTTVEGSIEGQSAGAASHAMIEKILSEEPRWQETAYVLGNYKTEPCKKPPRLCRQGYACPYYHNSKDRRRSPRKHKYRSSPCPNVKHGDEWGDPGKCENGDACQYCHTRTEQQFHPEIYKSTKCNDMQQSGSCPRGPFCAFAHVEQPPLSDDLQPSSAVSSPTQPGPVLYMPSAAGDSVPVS
All sequences stand within: GGGAGUUCUACAGUCCGACGAUC … CAACAGAGGAUUGAGCAUCA
Strand	bound/input enrichment [ratio]
CUCCUGUAAUCACUUUUGGAGGGCUGCUUGGAGAAGCUACAGAAGGCAGAAUAAGUGCAACCGAGUCUCUUUUUGGAGCGUCAUUAACUGGGAUUGCCUAUUCAUUGUUUGCUGGGCAAC	0.161
UGUGCUGAAUUACACCAAAAUGUAAAUGUGAAAAACAUAAUCAUUGCUUUAAUUGACAGAUCCGCUUUAUUUGCUCAUCGUGAAGAUGGACCCGGAAUUCCAGCUGAGAUUAAACUUUUU	0.126
UAUGAUCAAGUUCUUGUGGAGUCAGACAAUGAGAACCGCAUGGAGGAGAGCAAAGCACUCUUCCGAACAAUUAUCACCUACCCCUGGUUCCAGAACUCCUCUGUGAUUCUGUUCUUAAAC	0.164
GAAACAGAAUUAAAACAUUUCCACUGGGUUUCGCCUGUAAGAAAAAGUGUACCUGAGCACACCGCUUUUUAAUAGCACUAACCAAUGCCUUUUUAGAUGUAUUUUUGAUGUAUAUAUCUA	3.71
CUUAUGUAUCUACUAGCAUAUCCACAAAAGCCCAUGGUUAAAACAAAAACAAUCGAGUUGACCGAUUUUGAGAAGUUGCCGGCUGGCCAGAACGCAACUGUUGCCGUGAUGAGCUACAGC	0.378
GCUCAAAAAGUGUUUUUCAGACCUCGGUAUUCCUAAUGUGGGAUGUGACUUUAUUUUAUUUUCCGCCGCAAAUUUGGAUGUAGACUGACAGACAUAGCUGAAUGUCUUAAUAAAUUUAAA	0.677
CCAAGCACUGGAACACUUCCACCAUCUCUCUCUGCUUAUCAGCAUCCCACCACCUUCAGCAACCGAAACUUUGCUACCACUUCACCUUUGGUGCUUCAGGAUUCAACUUUUAACACUACA	0.535
GGUGCAAAAAGGCAGAAGGCCAGGUUGACAGUGUUUUGUCUUGUCCCUCCGUGUUUUCCCGAAUGUUUUACACCUGGCUGGUGAAUCUGCUGAGACCAGGUUUUCUGAGACUUGAUUAAA	0.105
ACAGCUAUCUGGAACUUACUCGUUACAACAGGGCGAGAAGUUAAAUAUGACUUGUUGGUCCGCAAUGCAAUUCAGUUUCUGGCUUCAGUUUGUGAAAGGCCACAUUAUAAGAAUCUGUUU	0.161
UCAAUUCUUCAAGAAAAAUUGCAAGAAAUCAGAAAGCAUUAUCUGUCUUUAAAAUCUGAAGCCGCUUCCAUUGAUAGGAGGAGAAAACGUUUAAAGAAGAAAGAGAGAGAAAGUGCUGCU	0.234
UCUUAAUCAUAGUCUACCAUCAAAUAUUUUAGGAGUAUCUUUAAUGUUUAGAUAGUAUAUCCGCAGCAUGCAAUAAUUACAUCAUAAGUUCUCAAGCAGAGGCAGUCUAUUGCAAGGACC	2.36

Series 2 — target: UBE2C UBC core domain (UniProt O00762); method: yeast two-hybrid; medium: yeast; setting: mostly zero background; baseline: not given; reading: higher = stronger interaction
Chain of UniProt O00762 (whole entry, looked up): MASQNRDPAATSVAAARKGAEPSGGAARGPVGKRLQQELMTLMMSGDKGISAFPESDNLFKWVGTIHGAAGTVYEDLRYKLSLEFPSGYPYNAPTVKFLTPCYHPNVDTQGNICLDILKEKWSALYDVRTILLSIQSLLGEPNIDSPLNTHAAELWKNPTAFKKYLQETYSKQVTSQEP
B1: RNF133 RING domain (UniProt Q8WVZ7); chain DEEINPNGDSCVICFERYKPNDIVRILTCKHFFHKNCIDPWILPHGTCPICKCDILKVLGIQ
B2: UBOX5 RING domain (UniProt O94941); chain EQPGSILGPECASCKRVFSPYFKKEPVYQLPCGHLLCRPCLGEKQRSLPMTCTACQRPVASQDVLR
B3: DTX2 RING domain (UniProt Q86UW9); chain EELKVPPDEDCIICMEKLSTASGYSDVTDSKAIGSLAVGHLTKCSHAFHLLCLLAMYCNGNKDGSLQCPSCKTIYGEKTGTQ
B4: SYTL4 RING domain (UniProt Q96C24); chain RGSQHYSDRTCARCQESLGRLSPKTNTCRGCNHLVCRDCRIQESNGTWRCKVCAKEIELKKAT
B5: RBCK1 RING domain (UniProt Q9BYM8); chain SLVLNTEPAECPVCYSVLAPGEAVVLRECLHTFCRECLQGTIRNSQEAEVSCPFIDNTYSCSGKLLEREIK
B6: MAP3K1 RING domain (UniProt Q13233); chain NSIKDEEEQMCPICLLGMLDEESLTVCEDGCRNKLHHHCMSIWAEECRRNREPLICPLCRSKWRSHDFYS
B7: RNF121 RING domain (UniProt Q9H920); chain MPTKHLSDSVCAVCGQQIFVDVSEEGIIENTYRLSCNHVFHEFCIRGWCIVGKKQTCPYCKEKVDLKRMFS
B8: DZIP3 RING domain (UniProt Q86Y13); chain PDEEEEEEEPCVICHENLSPENLSVLPCAHKFHAQCIRPWLMQQGTCPTCRLHVLLPEEFP
Sequence	lacZ reporter activity
KETIKKTTKPCPRCHVPVEKNGGCMHMKCPQPQCRLEWCWNCGCEWNRVCMG (PRKN RING domain (UniProt O60260))	0
PEDRESLKSACVVCLSSFKSCVFLECGHVCSCTECYRALPEPKKCPICRQAITRVIPLY (MUL1 RING domain (UniProt Q969V5))	0
B1 (RNF133 RING domain)	0
KLRKLKEAMLCMVCCEEEINSTFCPCGHTVCCESCAAQLQSCPVCRSRVEHVQHVY (MYLIP RING domain (UniProt Q8WY64))	0
B2 (UBOX5 RING domain)	0
GSDDEEIPFKCFICRQSFQNPVVTKCRHYFCESCALQHFRTTPRCYVCDQQTNGVFNPA (RNF113A RING domain (UniProt O15541))	0
B3 (DTX2 RING domain)	0
FDGDVDPDLKCALCHKVLEDPLTTPCGHVFCAGCVLPWVVQEGSCPARCRGRLSAKELN (PDZRN3 RING domain (UniProt Q9UPQ7))	0
B4 (SYTL4 RING domain)	0
B5 (RBCK1 RING domain)	0
B6 (MAP3K1 RING domain)	0
AVPSGLEENLCKICMDSPIDCVLLECGHMVTCTKCGKRMNECPICRQYVIRAVHVF (RFFL RING domain (UniProt Q8WZ73))	0
B7 (RNF121 RING domain)	0
B8 (DZIP3 RING domain)	0

Series 3 — target: BATF, bZIP domain (human); method: DHFR protein complementation; medium: yeast; baseline: wild-type JUN-FOS pair; reading: higher = stronger binding
Setting: single substitutions, most at no-binding floor
Starting sequence: JUN, bZIP domain (human); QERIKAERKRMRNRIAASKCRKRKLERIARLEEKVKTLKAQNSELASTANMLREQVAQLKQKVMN; partner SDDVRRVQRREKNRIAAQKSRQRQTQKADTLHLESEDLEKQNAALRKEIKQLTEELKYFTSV
Change	binding fitness
R53L	-0.534 natural log
L52E	-1.46 natural log
V35P	-1.2 natural log
A40D	0.021 natural log
L52V	-0.508 natural log
A29V	-0.236 natural log
M51Q	0.0477 natural log
L31I	-0.0728 natural log
I28F	-0.0912 natural log
Q58H	-0.0293 natural log
L45N	-1.2 natural log
N42V	-0.901 natural log
E44Y	-0.152 natural log
V35S	-0.574 natural log

Series 4 — method: RNA Bind-n-Seq; molecule type: RNA; medium: in vitro; concentration: 1 µM; setting: whole 134-nt RNA, ends assumed; added: 150 mM KCl; baseline: input library; reading: higher = stronger binding
Target: Ras GTPase-activating protein-binding protein 1, RRM domain (G3BP1, Homo sapiens, UniProt Q13283)
Chain of UniProt Q13283 (whole entry, looked up): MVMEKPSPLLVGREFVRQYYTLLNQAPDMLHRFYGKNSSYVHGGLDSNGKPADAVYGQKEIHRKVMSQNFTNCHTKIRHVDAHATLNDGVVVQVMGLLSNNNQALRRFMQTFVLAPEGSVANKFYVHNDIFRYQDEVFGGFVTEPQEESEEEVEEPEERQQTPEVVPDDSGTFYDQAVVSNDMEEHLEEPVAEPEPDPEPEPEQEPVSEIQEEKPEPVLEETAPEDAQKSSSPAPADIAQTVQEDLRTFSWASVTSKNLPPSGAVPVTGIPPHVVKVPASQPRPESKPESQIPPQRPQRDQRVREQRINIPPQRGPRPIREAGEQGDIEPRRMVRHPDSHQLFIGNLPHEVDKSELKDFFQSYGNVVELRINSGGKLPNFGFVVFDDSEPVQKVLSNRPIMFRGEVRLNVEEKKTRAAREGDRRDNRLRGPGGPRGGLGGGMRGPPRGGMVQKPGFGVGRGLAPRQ
All sequences stand within: GGGAGUUCUACAGUCCGACGAUC … UGGAAUUCUCGGGUGUCAAGG
Strand	log2 enrichment
UGGGAGGUGGAUUUUGUUUAUUUUUUUAGCUCAUUUCCAGGGGUGGGAAUUUUUUUUUAAUAUGUGUAAUGAAUAAAGUUGUUUUUGAAA	2.19
UCCCUGUCCAAGCUGAGCGCCCUCAACGAGAGCCUUGCUCAGGACAAGUUGGAUCUGAACUGCCUUGUCACCCAGGUACACUGUGCACCU	0.634
AGUCCUGUGCUACACAUCGUAUGUACCGAAUCAAAUUUAAAUUUUUUUAAACCCAAAAAAGUAUUAUGUUACGCCGUUCGGAUCUGCACU	-1.57
ACCAUGCAGGUGGGCAUCUUUGGGAAGUGGGGCAAGGGGGGGAUAGGGAGGGGGGUAACAAUUUGGGAACAGGUGGUCCCAGGUCGUUUC	1.02
UCCUCAAGUCCUGUGCUACACAUCGUAUGUACCGAAUCGGUGGUUUGGAGGAAAGUAUUAUGUUACGCCGUUCGGAUCUGCACUUCCAGC	-0.216
UUUGUCCCUGCUCAGGAUGAGACUUCUGUGAGCAGCGAGGAUUUUGAUAUGAGCGACUCCACAUGGAUGUCAGCUGACCCGCACCUGGCC	0.0549
UGGCCCUGGUGGCAUGCGGGGAGGAAGAGGUGGCCUCAUGGAUCGUGGUCGUCCCGGUGGAAUGUUCAGAGGUGGCCGUGGUGGAGACAG	0.086
CAAGUCCUGUGCUACACAUCGUAUGUACCGAAUCGGGUUUGGUUUGGGGUUUGGGGAAAGUAUUAUGUUACGCCGUUCGGAUCUGCACUU	0.0809
AAGUCCUGUGCUACACAUCGUAUGUACCGAAUCGGGGCCCCGGCCCCGGCCCCGGGAAAGUAUUAUGUUACGCCGUUCGGAUCUGCACUU	-0.691
GCGGGAAGUAAAAACAAAUGGAAAUGCUUCGGAUAGUGGCAGGGGUGGGGGUUGCUAAGGAAAGGGUGGGAUGGGAGUGGGUAAAGAGUU	0.916
CAAGUCCUGUGCUACACAUCGUAUGUACCGAAUCGGGUGGGAAAAAAAGGGUGGGAAAGUAUUAUGUUACGCCGUUCGGAUCUGCACUUC	0.785
ACCAUGCAGGUGGGCAUCUUUGGGAAGUGGGGCAAGGGGGGGAUAGGGAGGGGAGUAACACUUUGGGAACAGGUGGUCCCAGGUCGUUUC	0.718
CCUGUGCUACACAUCGUAUGUACCGAAUCGGGGUUUGGGGAAAAAAAGGGGUUUUUGGGGAAAGUAUUAUGUUACGCCGUUCGGAUCUGC	0.948
UUGGAAGAGACCAGUGAAAUUCGAUCUGACUUGGAGCAGUUAGACCACGAGGUUAAGGAGGCUCAGACACUGUGCGAUGAACUCUCAGUG	0.0598

Series 5 — method: DHFR PCA, deep sequencing; medium: yeast; added: (+)-ABA 0.032 µM; baseline: wild-type fitted maximum; reading: higher = stronger binding
Target: ABI1, truncated, D143A, DHFR fusion (Arabidopsis thaliana)
Setting: methotrexate growth selection, single substitutions
Starting sequence: PYL1, truncated, DHFR fusion (Arabidopsis thaliana); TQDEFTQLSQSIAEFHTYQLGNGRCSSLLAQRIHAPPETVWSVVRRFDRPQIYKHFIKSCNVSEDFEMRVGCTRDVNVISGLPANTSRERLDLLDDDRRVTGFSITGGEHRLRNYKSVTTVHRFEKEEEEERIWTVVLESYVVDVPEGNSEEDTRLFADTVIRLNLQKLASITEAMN; partner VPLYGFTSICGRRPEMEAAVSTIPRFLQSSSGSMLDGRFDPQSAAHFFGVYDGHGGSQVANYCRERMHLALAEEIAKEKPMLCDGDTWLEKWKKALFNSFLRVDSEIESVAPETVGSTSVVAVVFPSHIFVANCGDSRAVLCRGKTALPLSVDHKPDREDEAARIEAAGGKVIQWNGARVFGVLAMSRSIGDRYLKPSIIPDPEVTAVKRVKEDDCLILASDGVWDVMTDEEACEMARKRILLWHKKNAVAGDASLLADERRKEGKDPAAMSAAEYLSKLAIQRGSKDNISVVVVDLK
Change	relative binding score [%]
R88Y	9.89
D97M	9.21
V136F	3.49
T173E	-2.24
H110R	17.3
R98F	3.77
S27R	3.63
D153A	-3.44
Q51D	24.3
R163M	25.2
I57Y	-1.77
Q167V	1.85
Y141F	-1.33
N22M	13.5
L164F	4.69
E152I	3.27
A158G	3.15
L29V	31.1
T106H	2.15
D96H	-0.97

Series 6 — target: CCNB1, cyclin fold, Cln2 fusion (human); method: yeast growth competition, sequencing; medium: yeast; setting: weak parent motif; baseline: not given; reading: higher = stronger binding
Starting sequence: BRCA2 docking peptide (human); CKKRRALDFLSRL
Change	normalised enrichment score
D8A	0.746
R4A	0.268
L10A	0.986
R5K F9L	0.422
K2A	0.518
L13A	0.975
L7A	0.659

A few entries again (series 5):
Change	relative binding score [%]
R98F	3.77
L164F	4.69
E152I	3.27
I57Y	-1.77
